# Assay results pooled from the literature.
# Compare with care: the assays were run in different laboratories. ± gives the spread as reported.
Substance,test,test system,conditions,how to read,endpoint,result
Cc1nc2cccc(OCC(C)(C)C(=O)NC(C)C)c2c(N)c1C(=O)O,,"Sprague-Dawley rat, female, plasma","oral gavage, 30 mg/kg, day 1",,AUC(0-last),95 ± 20.4 ng·h/mL
C[C@]12CC[C@@H]3c4ccc(O)cc4CC[C@H]3[C@@H]1C[C@@H](O)[C@@H]2O,GC-MS,"breast cancer women on NSAI, serum","vaginal, 0.03 mg, 6 h, day 0",,median serum concentration,0 ng/mL
CCn1c(C(=O)c2cc(C)cc(C#N)c2)c(C(C)C)c(=O)[nH]c1=O,,"healthy humans, plasma","oral, 75 mg once daily, 7 days",,Cmax at steady state,385 ± 126 ng/mL
CCCCC[C@H](O)CC(=O)CCc1ccc(O)c(OC)c1,,"Sprague Dawley rat, male, small intestine site 4 contents","oral, 0.3 g/kg TU-100, 2 h, no β-glucuronidase treatment",baseline: ingested amount,recovery,2.01%
COc1ccc2c(c1OC)C(=O)O[C@@H]2[C@H]1c2c(cc3c(c2OC)OCO3)CCN1C,shake-flask,Captex 355,37 °C,,thermodynamic solubility,3.37 ± 0.11 mg/g
Oc1ccc2c3c(cnc2c1)-c1ccc(C(F)(F)F)cc1O[C@@H]3c1ccc(OCCN2CC(CF)C2)cc1,,"healthy postmenopausal women, plasma","oral solution, 400 mg [14C]-labelled, single dose, fasted",arithmetic mean,AUC0‐tlast of total radioactivity,17100 ng·h eq/mL
COc1c(N2C[C@@H]3CCCN[C@@H]3C2)c(F)cc2c(=O)c(C(=O)O)cn(C3CC3)c12,,"male Hartley guinea pig, anaesthetized","intravenous infusion, 1 mg/kg, 10 min infusion",baseline: baseline,QTc change,0.9 ± 1.7%
Cn1c(-c2ccc(C(N)=O)cc2F)nnc1C(C)(C)Oc1c(F)cc(Cl)cc1F,,"young Japanese adults, plasma","oral, 10 mg single dose, day 1, high-dose multiple-dose study",,Tmax median,3 h
CC[C@H](C)[C@H](NC(=O)[C@@H](NC(=O)[C@H](CS)NC(=O)[C@H](C)NC(=O)[C@H](CCCNC(=N)N)NC(=O)[C@H](CCCNC(=N)N)NC(=O)[C@H](CC(N)=O)NC(=O)[C@H](CCCNC(=N)N)NC(=O)[C@H](C)NC(=O)[C@H](CS)NC(=O)[C@H](CC(C)C)NC(=O)[C@@H](NC(=O)[C@@H](NC(=O)[C@H](CS)NC(=O)[C@H](CCCCN)NC(=O)[C@@H](N)CCCNC(=N)N)C(C)C)[C@@H](C)CC)C(C)C)C(=O)N[C@@H](CC(C)C)C(=O)N[C@@H](CS)C(=O)N[C@@H](CCCNC(=N)N)C(=O)O,LC/MS,PBS,0.1 mg/mL,baseline: LC peak area,two-disulfide form,74%
COC(=O)Nc1nc2ccc(Sc3ccccc3)cc2[nH]1,shake-flask,polysorbate 80,37 °C,,thermodynamic solubility,1.9 ± 0.05 mg/g
[2H]C([2H])([2H])NC(=O)c1cc(Oc2ccc(NC(=O)Nc3ccc(Cl)c(C(F)(F)F)c3)cc2)ccn1,,"male Sprague-Dawley rat, plasma","dose not given, not significant, with: telmisartan multiple doses",baseline: compound alone,decrease in AUC(0-t),54.9%
C[C@]12C=CC(=O)C=C1CC[C@@H]1[C@@H]2[C@@H](O)C[C@@]2(C)[C@H]1C[C@H]1O[C@@H](C3CCCCC3)O[C@]12C(=O)CO,,"children with asthma, serum","inhaled, 160 µg ciclesonide, day 7, steady state, MDI with spacer",,AUC(tau),0.663 ng·h/mL
CN1CCN(CCC(=O)Nc2ccc3c(c2)Sc2cccc(-c4cc(=O)cc(N5CCOCC5)o4)c2S3)CC1,,"nude mice, SW-620 xenograft, tumour",dose not given,,duration of sensitising tumour levels,≥ 4 h
CC(=O)c1c(C)c2cnc(Nc3ccc(N4CCNCC4)cn3)nc2n(C2CCCC2)c1=O,,"human patients, plasma","oral, 125 mg once daily, cycle 1 day 15, steady state, with: letrozole 2.5 mg once daily",,"AUC(tau), geometric mean",1980 ng·h/mL
CN[C@H](CC(C)C)C(=O)N[C@H]1C(=O)N[C@@H](CC(N)=O)C(=O)N[C@H]2C(=O)N[C@H]3C(=O)N[C@H](C(=O)N[C@H](C(=O)O)c4cc(O)cc(O)c4-c4cc3ccc4O)[C@H](O)c3ccc(c(Cl)c3)Oc3cc2cc(c3O[C@@H]2O[C@H](CO)[C@@H](O)[C@H](O)[C@H]2O[C@H]2C[C@](C)(N)[C@H](O)[C@H](C)O2)Oc2ccc(cc2Cl)[C@H]1O,,"pig, Danish Landrace, plasma","intravenous, 1000 mg over 100 min, 450 min dosing interval, with: 4.0 µg/mL MIC",baseline: dosing interval,time above MIC,99%
CCCOc1ccc([C@H]2CNC(=O)N2c2ccc3[nH]cnc3c2)cc1,,"human, plasma","oral, 400 mg, single dose, fasted",,Tmax,0.5 h
C[C@@H](N)c1cc(Cl)ccc1Cn1c(=S)[nH]c(=O)c2[nH]ccc21,,"healthy Japanese volunteers, plasma","oral, 5 mg once daily, day 10, geometric mean",,AUC(tau),0.573 µM·h
CCn1c2ccccc2c2cc(-n3nncc3-c3ccccc3)ccc21,,"female BALB/c mouse, kidney","oral, 10 mg/kg, single dose",,Tmax,0.5 h
C[N+]1(CC(=O)NC2CCCCCCCCCCC2)CCCCC1,metabolic stability,"male CD-1 mouse, liver microsomes","1 µM, pH 7.4",,microsomal CLint,196 µL/min/mg
CCCCN1CCC(N(Cc2ccccc2)C(=O)Nc2ccc(Cl)c(Cl)c2)CC1,,"CD-1 female mouse, liver microsomes",0.8 µM,,intrinsic clearance,25 mL/min/kg
COc1c(N2CCNC(C)C2)c(F)cc2c(=O)c(C(=O)NCCCN(C)C)cn(C3CC3)c12 (racemic),item: GFX formed plus unchanged prodrug,"pigmented rabbits, vitreous humor","topical eye drop, 30 µL of 35 mg/mL, 1 h",baseline: prodrug over GFX 5 mg/mL,tissue level ratio,3.6 fold
acyl ghrelin (human),,"Ghsr knockout mice, midbrain","intravenous, dose not given, 10 min, vascular space corrected",,tissue/serum ratio,5.46 µL/g
CCCCCCCCC/C=C/C(=O)CCc1ccc(O)c(OC)c1,,"rat, small intestine site 4 contents","oral, dose not given, 4 h, no β-glucuronidase treatment",baseline: ingested amount,recovery,0.07%
O=C(O)c1cc(/N=N/c2ccc(S(=O)(=O)Nc3ccccn3)cc2)ccc1O,shake-flask,Captex 355,37 °C,,thermodynamic solubility,0.02 mg/g
COc1cnc(NS(=O)(=O)c2ccc(NC(=O)/C=C\c3ccc(O)c(O)c3)cc2)nc1,,n-octanol/PBS,pH 7.4,,log P,> 0.5
C[C@]12CC[C@@H]3c4ccc(O)cc4C[C@@H](CCCCCCCCC[S+]([O-])CCCC(F)(F)C(F)(F)F)[C@H]3[C@@H]1CC[C@@H]2O (stereo partly shown),dynamic light scattering,50 mM potassium phosphate,pH 7.0,,critical aggregation concentration,0.5 µM
CNc1nc(Nc2ccc(-n3cnc(C)n3)c(OC)c2)nc2c1CC[C@H]2c1ccc(F)cc1,,"human, plasma","oral, 1200 mg, single dose, healthy volunteers",,Tmax,4 h
CNCc1ccc(-c2[nH]c3cc(F)cc4c3c2CCNC4=O)cc1,,"human patients, plasma","oral, 240 mg twice daily, day 1, 12 h, arithmetic mean",,AUC(0-t),2800 ng·h/mL
Cc1cc(-n2c(=O)[nH]c(=O)n(C)c2=O)ccc1Oc1ccc(SC(F)(F)F)cc1,shake-flask,Captex 355,37 °C,,thermodynamic solubility,2.06 ± 0.15 mg/g
C[C@@H]1CCC[C@H](n2cnc(-c3cc(Cl)ccc3-n3cc(Cl)nn3)cc2=O)c2cc(ccn2)-c2c(cnn2C(F)F)NC1=O,,"human, plasma","oral, 20 mg, single dose, fasted, healthy volunteers",,Tmax,3 h
CC(C)(C)NC(=O)[C@@H]1C[C@@H]2CCCC[C@@H]2CN1C[C@@H](O)[C@H](Cc1ccccc1)NC(=O)[C@H](CC(N)=O)NC(=O)c1ccc2ccccc2n1,shake-flask,Captex 355,37 °C,,thermodynamic solubility,7.09 ± 0.14 mg/g
CS(=O)(=O)n1cc2c(n1)CN([C@H]1CO[C@H](c3cc(F)ccc3F)[C@@H](N)C1)C2,,"male human, urine","oral, 400 mg, single dose, fasted, healthy volunteers",,renal clearance,45 mL/min
CNC(=O)c1cc(Oc2ccc(NC(=O)Nc3ccc(Cl)c(C(F)(F)F)c3)cc2)ccn1,population PK model,"human, AML patients","oral, typical at 80 kg",,total clearance,235 mL/min
CCCCN(CCCC)CCC(O)c1cc2c(Cl)cc(Cl)cc2c2cc(C(F)(F)F)ccc12 (stereo not shown),shake-flask,Captex 355,37 °C,,thermodynamic solubility,99.6 ± 2.82 mg/g
CCCC[C@H](NC(C)=O)C(=O)N[C@H]1CCC(=O)NC[C@@H](C(=O)N[C@@H](Cc2c[nH]c3ccccc23)C(N)=O)NC(=O)[C@H](CCCNC(=N)N)NC(=O)[C@@H](Cc2ccccc2)NC(=O)[C@H](Cc2c[nH]cn2)NC1=O,,"female rat, plasma","subcutaneous, 1 mg/kg/day, multiple doses, once daily",,CL/F,20.1 mL/min/kg
CC[C@H](C)[C@@H]1NC(=O)[C@H](Cc2ccc(O)cc2)NC(=O)[C@@H](N)CSSC[C@@H](C(=O)N2CCC[C@H]2C(=O)N[C@@H](CC(C)C)C(=O)NCC(N)=O)NC(=O)[C@H](CC(N)=O)NC(=O)[C@H](CCC(N)=O)NC1=O,"microdialysis, radioimmunoassay","C57BL/6J male mice, wild type, hippocampus extracellular fluid","intraperitoneal, 12 µg total",,Cmax,2.23 ± 1.07 pg/sample
COc1cnc(C(=O)Nc2ccc(F)c([C@]34CN(c5ncc(F)cn5)C[C@H]3CSC(N)=N4)c2)cn1,,"PDAPP mice, brain","oral, 1.0 mg/kg, 3 h",,brain concentration,38.1 nM
NC(=O)N1c2ccccc2C=Cc2ccccc21,shake-flask,Captex 355,37 °C,,thermodynamic solubility,2.56 ± 0.12 mg/g
Cn1cc(-c2ccc3nnc(Sc4ccc5ncccc5c4)n3n2)cn1,,"Sprague-Dawley rat male, hepatic S9","1 µM, pH 7.4, with: without NADPH",,CLint,10.4 ± 3.2 mL/min/kg
CSc1cc(C)nc(SC)c1NC(=O)CN1CCN(CCSc2nc3ccccc3[nH]2)CC1,,"mouse Crl:CD1 (ICR) female, cerebrum","intranasal repeated, 32.4 µg in 0.01 N HCl, 30 min",,concentration,4.5 ng/g
CC1=C2C[C@H]3[C@@H](CC[C@@H]4C[C@H](NS(C)(=O)=O)CC[C@@]43C)[C@@H]2CC[C@@]2(C1)O[C@@H]1C[C@H](C)CN[C@H]1[C@H]2C,,"patients, plasma","oral, 40 mg daily, day 22, cycle 1",,AUC(0-24),800 ng·h/mL
CN[C@H](CC(C)C)C(=O)N[C@H]1C(=O)N[C@@H](CC(N)=O)C(=O)N[C@H]2C(=O)N[C@H]3C(=O)N[C@H](C(=O)N[C@H](C(=O)O)c4cc(O)cc(O)c4-c4cc3ccc4O)[C@H](O)c3ccc(c(Cl)c3)Oc3cc2cc(c3O[C@@H]2O[C@H](CO)[C@@H](O)[C@H](O)[C@H]2O[C@H]2C[C@](C)(N)[C@H](O)[C@H](C)O2)Oc2ccc(cc2Cl)[C@H]1O,LC-MS/MS,"New Zealand White rabbit, tibial medullary bone","intraosseous, 30 mg/kg, end of infusion",,peak drug concentration,1900 ng/µL
C[C@H]1CN(C(=O)CC#N)[C@]12CCN(c1ncnc3[nH]ccc13)C2,,"atopic dermatitis patients, urine","topical, 5 g of 3% ointment",baseline: patients over healthy volunteers,systemic exposure ratio,~20
